Results from different studies.
Numbered parts are unrelated; each lists some results of a single study.

Sample 1 — method: protein binding microarray; form: double-stranded DNA, one strand shown; matrix: in vitro; tested at: not given; reference: not given; reading: higher = stronger binding
Target: Histone acetyltransferase KAT6A, both winged helices, GST fusion (KAT6A, Homo sapiens, UniProt Q92794, residues 1-181)
Notes: 8-mer, flanks averaged, mean of 2 arrays, mostly near background
Construct (chain): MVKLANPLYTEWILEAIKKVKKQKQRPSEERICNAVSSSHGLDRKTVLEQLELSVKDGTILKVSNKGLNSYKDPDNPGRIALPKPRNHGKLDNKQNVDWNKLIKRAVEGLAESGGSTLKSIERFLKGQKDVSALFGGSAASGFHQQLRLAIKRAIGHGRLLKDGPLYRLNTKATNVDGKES
| Oligonucleotide | E-score |
| --- | --- |
| CGACACAG | 0.0272 |
| ATATGGCC | 0.0567 |
| CTACCTCC | -0.141 |
| ATGGTCGG | 0.0617 |
| AGACCGGG | 0.0853 |
| AGGGTAAC | -0.078 |
| AGATTGGG | -0.258 |
| GACGGTAC | 0.227 |
| ACAAGTCT | -0.127 |
| GGCAAGAA | -0.0435 |
| GTGCGTGA | 0.15 |
| GCTCCCCC | -0.143 |
| AGCCGTAG | 0.138 |
| GGAGCTCC | -0.00517 |
| AGTTAGAC | -0.0354 |
| ACCGGCGG | 0.335 |
| GCCGATCC | 0.186 |
| GTGTAATA | -0.074 |
| GGTGCCGA | 0.241 |
| CTTTATCA | -0.201 |
| ATAGGTAA | -0.17 |
| AGACTTCC | -0.1 |
| ATATTTTA | -0.132 |

Sample 2 — method: universal PBM; form: double-stranded DNA, one strand shown; matrix: in vitro; tested at: not given; reading: higher = stronger binding
Target: Sal-like protein 4, full length isoform B (SALL4, Homo sapiens, UniProt Q9UJQ4-2, residues 1-616)
Notes: 8-mer, flanks averaged, mean of replicates
Target sequence (chain): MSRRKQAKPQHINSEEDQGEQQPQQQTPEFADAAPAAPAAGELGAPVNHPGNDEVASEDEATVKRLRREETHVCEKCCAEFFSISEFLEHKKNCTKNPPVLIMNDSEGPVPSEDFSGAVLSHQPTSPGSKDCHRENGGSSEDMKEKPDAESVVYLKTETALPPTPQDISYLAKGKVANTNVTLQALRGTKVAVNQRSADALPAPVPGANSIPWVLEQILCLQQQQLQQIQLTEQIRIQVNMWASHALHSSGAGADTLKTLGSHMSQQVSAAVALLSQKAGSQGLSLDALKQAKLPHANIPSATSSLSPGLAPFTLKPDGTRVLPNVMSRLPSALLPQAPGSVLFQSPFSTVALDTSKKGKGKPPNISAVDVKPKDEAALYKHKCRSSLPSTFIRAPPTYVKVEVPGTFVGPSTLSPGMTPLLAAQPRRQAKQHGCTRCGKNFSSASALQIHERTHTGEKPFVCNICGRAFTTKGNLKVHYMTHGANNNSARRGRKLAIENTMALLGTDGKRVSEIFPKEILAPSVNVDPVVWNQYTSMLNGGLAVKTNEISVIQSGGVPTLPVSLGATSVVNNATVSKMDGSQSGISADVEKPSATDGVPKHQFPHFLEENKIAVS
| Oligonucleotide | E-score |
| --- | --- |
| AAGCATTG | -0.0513 |
| AAAAGTAA | 0.316 |
| ACCCTACC | -0.117 |
| CGGAAATC | -0.098 |
| ACCCAAGG | -0.0722 |
| AGCAGAAC | -0.0508 |
| CGCATATC | 0.204 |
| CAGAGAAG | -0.127 |
| ACACCTTA | 0.0797 |
| ACGTCTTG | 0.0215 |
| GTGCTGGA | -0.147 |
| AAACTGGA | 0.0772 |
| CCTTGATC | -0.0853 |
| GAAGGTAA | 0.218 |
| ATTGCCAA | 0.0389 |
| CGGTGACA | -0.199 |
| ACGTTCTG | -0.149 |
| TTCCCGAA | -0.0213 |

Sample 3 — method: EMSA with sequencing; form: double-stranded DNA, one strand shown; matrix: in vitro; tested at: 10 and 20 nM; reference: negative control set to 0; reading: higher = stronger binding
Target: Hepatocyte nuclear factor 3-alpha (Foxa1, Mus musculus, UniProt P35582, residues 1-468, full length assumed)
Notes: whole designed probe, mean of two concentrations, ends assumed
Shared flanks, not repeated: GTGAGCGGTGCCCATTGATGGGGAAC … TTTCACTGGGATCGTGGGGAC
Residues (chain): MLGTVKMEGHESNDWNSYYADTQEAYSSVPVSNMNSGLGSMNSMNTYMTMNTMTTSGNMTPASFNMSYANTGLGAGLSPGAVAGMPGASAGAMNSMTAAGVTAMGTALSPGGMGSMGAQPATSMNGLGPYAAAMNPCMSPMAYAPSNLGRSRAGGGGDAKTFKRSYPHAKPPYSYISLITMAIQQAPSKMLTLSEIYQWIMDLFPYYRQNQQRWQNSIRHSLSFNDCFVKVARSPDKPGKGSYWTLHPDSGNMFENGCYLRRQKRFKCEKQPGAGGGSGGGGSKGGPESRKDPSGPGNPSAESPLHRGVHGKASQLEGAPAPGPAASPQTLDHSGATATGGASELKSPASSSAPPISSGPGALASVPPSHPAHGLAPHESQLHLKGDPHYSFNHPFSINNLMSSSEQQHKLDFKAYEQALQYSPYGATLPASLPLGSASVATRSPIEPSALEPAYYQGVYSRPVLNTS
| Oligonucleotide | normalised bound fraction [ratio] |
| --- | --- |
| TCCCTTTTATAGGAATTATGCAGAAATTATTCCATTTCTTTGAACATTTGGGAGCATATGCAGAGTAAAGTATAAATGCTTGCAGAATGCCTTAAATTGCATATTGCAGTTTTTCAGAAATTATCTCCCTTCAGCACACCAAAGGCTTTGATTTCTACTAATTCTAATAATATTCAGGGTGAAGGAGAAACTG | -0.0406 |
| ATGTGGGAACTAATTGAGGACCAAGATTACAATGCGTACAAATCATAAATCAATTAGTTCATATTGATTTACAAACAAGGAAGAAAAAGTATTAGATTACATTGATACTGTCCATGTAAACTTTTTTCAATTCAAAAGAAACACATAGTTCTGTCATAAAGTAGATTTTCTATCCCTTTTATTTTCTGAGCTT | 0.264 |
| ATCTTCCCCCTCTTCCTTGCCCCACCAGCTCACCTTCCCGGGTTATTTAGTAGAAGGCAAATAAATAAAGCCGGCATTCGTTAACCCTCTTCTGGCGCAAACTGCTGTTTGCTCTGGATGAATCATGGTCCTTTGGCGACGCCAGGCTCCGGGAGAGCAAAGCACCGTGTCAGGGCCATGATCCGGGGTGGCC | 0.3 |
| ATCTTCCCCCTCTTCCTTGCCCCACCAGCTCACCTTCCCGGGTTATTCGAAGATTGGAAAATAAATAAAGCCGGCATTCGTTAACCCTCTTCTGGCGCAAACTGCTGTTTGCTCTGGATGAATCATGGTCCTTTGGCGACGCCAGGCTCCGGGAGAGCAAAGCACCGTGTCAGGGCCATGATCCGGGGTGGCC | 0.302 |
| ATCTTCCCCCTCTTCCTTGCCCCACCAGCTCACCTTCCCGGGTTATTTGCACAAAGGAAAATAAATAAAGCCGGCATTCGTTAACCCTCTTCTGGCGCAAACTGCTGTTTGCTCTGGATCTAACATGGTCCTTTGGCGAGGCGTGGCTCCGGGAGAGCAAAGCACCGTGTCAGGGCCATGATCCGGGGTGGCC | 0.362 |
| ATCTTCCCCCTCTTCCTTGCCCCACCAGCTCACCTTCCCGGGTTATTTGCAGATAGGAAAATAAATAAAGCCGGCATTCGTTAACCCTCTTCTGGCGCAAACTGCTGTTTGCTCTGGATGAATCATGGTCCTTTGGCGACGCCAGGCTCCGGGGAAGCAAGACACCGTGTCAGGGCCATGATCCGGGGTGGCC | 0.336 |
| TGCCCACTGCCTATGGGAGTTGACACTTTTGAGTTTAACATTCATTCCAGCTCTTCCGTCATCTCCAGACCCTACTATTCCAAACTCATCTCTTATTGACTTTCTGACTCATTAAATGTTGACCTTAGCAATCCGCTGTCCTTTACATGGTCCAGAATACCTCCTTCTTCATCATGTTACGCCAGTCTTTCAG | 0.244 |
| CGCGCCCGGACAGGACATGGGGGTTTCTAAACAAGGCTCTTCAGTATCAGCTCATTGTGAGTCACAGATCAGATCTGCCCAGTTCTCTTTTGCTGTTGACATTGTTGTTTCCTCTGCAGGATTCAGCAGTACTGAAAGGGTTATTCAGTCCCAACATGGGATCTTTACACAAGAAGGGGAGCTTGTGAAATGC | 0.126 |

Sample 4 — method: RNA Bind-n-Seq; form: RNA; matrix: in vitro; tested at: 365 nM; reference: no-protein control; reading: higher = stronger binding
Target: RNA binding protein fox-1 homolog 2, RRM domain, GST-SBP tag (RBFOX2, Homo sapiens, UniProt O43251-10, residues 100-194)
Notes: natural RNA segment, single round, ends assumed
Shared flanks, not repeated: GGGAGUUCUACAGUCCGACGAUC … UGGAAUUCUCGGGUGCCAA
Residues (chain): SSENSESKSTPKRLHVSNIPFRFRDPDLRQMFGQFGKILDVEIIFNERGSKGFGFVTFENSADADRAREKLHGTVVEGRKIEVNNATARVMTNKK
| Oligonucleotide | RBNS enrichment (R) |
| --- | --- |
| GGAUAUGGUUUACAUUACCGUUUGUUUUCAUUGUGAUUGCCCCUAUGUAACAAUCAUGAAUAUUAGAUUUUUUAAAUUGUAGAAUAUCCUAAUAUUUAUAGCCAGCAGCU | 0.394 |
| AGUUUACCGUAACUUUUCUUAAACUUUUUAGUGCCGUUUCUAGUAUAUUCCUGUAAAUGUCAGUUACUGAAAAUGAGUCCAAUGUAAGUAGUUUAGCUUGUUUAUUGCAA | 1.52 |
| GUGCAGAGGUCUCCAGUGCCGAGCACAGGCACCUGCCAUCAGUAGUUCCUGUGUCAUCUUCACAUCUAGCAGAGCACGGAUGUGUUUGCAUGCUGUGCUCUUGGAGCUUG | 0.458 |
| AAAGUCACCUUUUUGCUGAUGAAAAGAACAUAUGUAUAAUAUAGUUGAACUCGAAGACAACUUAAAGUUUAGGGAAAGGAGAAUAUUUUUGGCAGAACAUCCGUCAGUAC | 0.438 |
| UGAAUUUGGGCUCAAUCCAUAAUUUUUGACAUUUUCACAAAAAUAUGGUUUGCACUUUUUAAUCUAAAUUCAUCCCUUCUAAGUGAGGUUUGCUCAUACAGCAUUUGGAU | 0.419 |
| UCUUUUUCCAGUUUACACAGACCGGUCCCCACAGUGCAGAAUCCAUUUCUCUUUCGUCUCAACAGUAGACAACUAGGAUGUGGAUCUCAUAUUUAUAAGUAUGCAUUUUA | 0.653 |
| UGGAGAGUGGUGGGGAGCCCUACCUUGUAGCCUUCAGUGGAUGCUCUCCCCUUGGUCACCUCUGGAACAAACAGGUUCCUUCCCUGGGGUCCAUAGGGAGGGACCUCAUG | 0.23 |
| AAAGAGUGAUAGUCUUUUGCUUUUGGCAAAACUCUACUUAAUCCAAUGGGUUUUUCCCUGUACAGUAGAUUUUCCAAAUGUAAUAAACUUUAAUAUAAAGUAGUCCUGUG | 0.393 |
| CUACUCUGUGGAUGAUUUCCAAACAUUCAAAGCCAAUAGCCUUGUUAUUAACAAGAUAUUUUGAGUACAAUAUGGCUCAUUGACUUUUCCAUUACAUCUGAGGAUUCCAG | 0.205 |
| AAACAGUUAAAAUGAAUUUAAGAAUAAACAUAAGGCAUCGUUUUCAAUGAACAGUAAUAAUUUCCCAAUUUACAGAUUAGUGUCUACAAAGGUUUUCUUACAUCUUCUUC | 0.683 |
| UAAGAAAUAGUUUAACAGGAAAAAACGUUUAAGCACAAACAUUUUUAAGAUCUUAUGUUUUAAGUGGCAUUUUAGCACAGUAUUUAACAUUGUUGGUCACCGAGCUAUUU | 0.868 |
| CAUUGCAAUGGGAGGUGGAGGGACAGGCUCAGCCUCCUCAUUGUCUAAAUGAGGCCUAAAUGUGUGAAGUGCGAUUUCUGCUUUUGUGUACCCCACCACCCCAUUACCAC | 0.518 |

A few entries again (sample 2):
| Oligonucleotide | E-score |
| --- | --- |
| CCTTGATC | -0.0853 |
| ATTGCCAA | 0.0389 |
| ACGTCTTG | 0.0215 |
| AAAAGTAA | 0.316 |
| AAGCATTG | -0.0513 |
| ACCCAAGG | -0.0722 |
| AGCAGAAC | -0.0508 |
| ACGTTCTG | -0.149 |
| CGGAAATC | -0.098 |
| GTGCTGGA | -0.147 |
